Published values pooled from the literature.
Each numbered part is a random draw from the data of one study; scales do not carry over between parts.

Sample 1 — target: Sox, HMG box (Pigoraptor chileana); method: Spec-seq; form: double-stranded DNA, one strand shown; sample: in vitro; tested at: not given; notes: whole probe, mean of replicates; baseline: not given; reading: lower = stronger binding; measurement: relative binding energy; constant ends, left off below: GAGTCGTCTCGTCAGCAC … CCGTAGAGCACTCAGGTC
Target sequence (chain): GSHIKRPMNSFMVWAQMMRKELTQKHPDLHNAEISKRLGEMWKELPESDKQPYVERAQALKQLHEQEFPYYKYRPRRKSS
TGAAGTT: 0.683 ln ratio
CATAGTA: -0.99 ln ratio
GTGTGTT: -0.0659 ln ratio
CATTGCT: -0.0166 ln ratio
CATGTCA: 0.755 ln ratio
CATCAAT: 0.154 ln ratio
CATCACG: -0.0721 ln ratio

Sample 2 — method: protein-binding microarray; form: double-stranded DNA, one strand shown; sample: in vitro; tested at: 250 nM; notes: 60-bp whole probe; added: salmon DNA 0.4 mg/ml; baseline: random background probes; reading: higher = stronger binding; measurement: log fluorescence; constant ends, left off below: GCCTAGCAC … GTCTTGATTCGCTTGACGCTGCTG
Target: Interferon regulatory factor 7, full length, phosphomimetic (IRF7, Homo sapiens, UniProt Q92985, residues 1-503, S101K/S471D/S472D/S475D/S476D/S477D/S483D/S484D/S487D)
Construct (chain): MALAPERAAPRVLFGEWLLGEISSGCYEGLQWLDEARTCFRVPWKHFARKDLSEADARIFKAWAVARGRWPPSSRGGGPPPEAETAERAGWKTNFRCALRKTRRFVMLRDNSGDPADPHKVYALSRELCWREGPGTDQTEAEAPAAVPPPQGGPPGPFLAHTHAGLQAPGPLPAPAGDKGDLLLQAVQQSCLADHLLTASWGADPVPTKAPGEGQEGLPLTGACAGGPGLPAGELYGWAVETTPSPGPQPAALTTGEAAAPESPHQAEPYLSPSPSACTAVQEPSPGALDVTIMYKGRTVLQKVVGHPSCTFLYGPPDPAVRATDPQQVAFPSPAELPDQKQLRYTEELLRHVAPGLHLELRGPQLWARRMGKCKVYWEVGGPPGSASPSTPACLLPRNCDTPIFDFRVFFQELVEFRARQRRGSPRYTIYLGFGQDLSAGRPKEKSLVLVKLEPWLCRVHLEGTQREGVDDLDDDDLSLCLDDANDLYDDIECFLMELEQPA
CTAGATATCGGGTTTCGATTAGTGCTA: 6.97 z-score
GACGAATTCAGTTCCGAGACGTGCTAG: 0.325 z-score
TCAGAACTGAGTCTCGATTAGTGCTAG: 1.32 z-score
GACGGTATCGACAATCGGGACGTGCTA: -0.432 z-score
TCAGGTATTTTTTTGTAACTGTGCTAG: 0.15 z-score

Sample 3 — method: RNAcompete; form: RNA; sample: in vitro; tested at: 20 nM; notes: 7-mer, probes averaged, single round; baseline: mean of 7-mers; reading: higher = stronger binding; measurement: 7-mer Z-score
Target: PABPC1L2, full length, GST fusion (mouse, UniProt A0ABA7IW68)
Construct (chain): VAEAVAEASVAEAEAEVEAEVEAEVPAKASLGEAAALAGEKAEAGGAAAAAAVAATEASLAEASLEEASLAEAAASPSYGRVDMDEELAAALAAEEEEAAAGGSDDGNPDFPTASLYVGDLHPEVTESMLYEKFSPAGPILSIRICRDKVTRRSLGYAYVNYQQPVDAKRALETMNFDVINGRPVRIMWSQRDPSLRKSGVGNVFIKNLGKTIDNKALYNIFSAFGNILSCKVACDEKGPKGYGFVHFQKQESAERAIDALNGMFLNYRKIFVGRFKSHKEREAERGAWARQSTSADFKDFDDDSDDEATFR
GCUUGGU: -0.182
UAGGCGC: -0.182
GCCGUAG: -0.215
UAUUGCU: -0.199
UUUUUUA: 0.00798
AAGUGUA: 0.32
ACUCUGC: -0.342

Single results of other studies
PhoQ, residues 284 288 289 292 302 303 SCEHLI
fold induction (PhoP, residues 12 14 15 18 19 SPWRL (Escherichia coli, UniProt P23836); Sort-seq, item: YFP reporter; E. coli; PhoQ-PhoP variant library, added: 10 µM Mg2+; baseline: high Mg2+ state, higher = stronger signaling): 0.134

Excerpt of the above (sample 3):
UAUUGCU: -0.199
UUUUUUA: 0.00798
